Measured values from different studies.
A part holds a random share of what one study measured.

Study 1
Target: Prothrombin, mature alpha-thrombin (F2, Homo sapiens, UniProt P00734)
Technique: aptamer microarray, sandwich
Molecule type: DNA with 2'F-ANA
Medium: in vitro
Tested at: 200 nM
Notes: whole 15-mer aptamer, many near background
With: Cy3 exosite-II aptamer, 400 nM
Direction: higher = stronger binding
Oligonucleotide: GGTTGGTGTGGTTGG
`2'F-ANA at 1 2 3 4 5 7 8 10`: “mean fluorescence intensity” 48.3 a.u.
`2'F-ANA at 1 4 7 9 10 12 14 15`: “mean fluorescence intensity” 48.7 a.u.
Under “mean fluorescence intensity”, `2'F-ANA at 1 2 5 7 8 9 12 13 14 15` is recorded as 44.1 a.u.
`2'F-ANA at 1 5 9 10 11 15` — result for “mean fluorescence intensity”: 48.3 a.u.
`2'F-ANA at 2 6 7 8 15` — result for “mean fluorescence intensity”: 454 a.u.
`2'F-ANA at 1 2 3 6 7 9 12 14`: “mean fluorescence intensity” 75.6 a.u.
Under “mean fluorescence intensity”, `2'F-ANA at 4 6 7 8 11 12 14` is recorded as 116 a.u.
Under “mean fluorescence intensity”, `2'F-ANA at 8 9 10 12` is recorded as 212 a.u.
`2'F-ANA at 2 7 9 11 13 14 15`: “mean fluorescence intensity” 147 a.u.
For `2'F-ANA at 1 3 11 12`, “mean fluorescence intensity” read 529 a.u.
Under “mean fluorescence intensity”, `2'F-ANA at 1 2 3 5 6 8 9 11 12` is recorded as 104 a.u.
`2'F-ANA at 1 3 5 6 9 10 13 14 15` — result for “mean fluorescence intensity”: 47.3 a.u.
Under “mean fluorescence intensity”, `2'F-ANA at 2 9 11` is recorded as 397 a.u.
`2'F-ANA at 1 3 4 6 7 8 10 11 13 15`: “mean fluorescence intensity” 59.1 a.u.
`2'F-ANA at 3 5 6 9 10 14` — result for “mean fluorescence intensity”: 47.7 a.u.
For `2'F-ANA at 1 3 4 5 7 8 12 14`, “mean fluorescence intensity” read 63.8 a.u.

Study 2
Target: Histone acetyltransferase KAT6A, winged helix 1, GST fusion (KAT6A, Homo sapiens, UniProt Q92794, residues 1-85)
Technique: protein binding microarray
Molecule type: double-stranded DNA, one strand shown
Medium: in vitro
Tested at: not given
Notes: 8-mer, flanks averaged, mean of 2 arrays, mostly near background
Reference: not given
Direction: higher = stronger binding
Residues (chain): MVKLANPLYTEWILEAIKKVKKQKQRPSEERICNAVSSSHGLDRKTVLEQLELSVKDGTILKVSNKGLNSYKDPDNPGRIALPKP
`ACATCAAA` has an E-score of -0.203.
The E-score of `CGCGGAAC` is reported as 0.364.
`ATGCTTGA` has an E-score of -0.101.
`AGATCCCA` gave an E-score of -0.265.
For `TAATGTAA`, the E-score was -0.0396.
`AATACTGA` gave an E-score of -0.0775.
`TACGCGTA` gave an E-score of 0.417.
`CACGTTCG` has an E-score of 0.0172.
The E-score of `AAATAGCT` is reported as -0.216.
`CTCGTGAA` has an E-score of -0.294.
With `TCGAACAA` the E-score was -0.137.
With `TACAACAA` the E-score was -0.235.
`TAACTATA` gave an E-score of -0.124.
`AGAGTATG` gave an E-score of 0.0121.
With `CCGCCGCA` the E-score was 0.43.
The E-score of `AAACTGAA` is reported as -0.0892.
`GGGCAGAC` gave an E-score of 0.0611.
With `CACGCAGA` the E-score was 0.00461.
For `AGCCAGAA`, the E-score was -0.216.
`AGGGTATC` gave an E-score of -0.126.
`CGAAGGAA` gave an E-score of -0.0892.
The E-score of `CAGAAGGC` is reported as -0.0434.
With `AAATGCAC` the E-score was -0.168.
`CCTTGCCC` gave an E-score of -0.0599.
The E-score of `GGGCAACA` is reported as 0.029.

Study 3
Target: RNA binding protein fox-1 homolog 2, RRM domain, GST-SBP tag (RBFOX2, Homo sapiens, UniProt O43251-10, residues 100-194)
Technique: RNA Bind-n-Seq
Molecule type: RNA
Medium: in vitro
Tested at: 365 nM
Notes: natural RNA segment, single round, ends assumed
Reference: no-protein control
Direction: higher = stronger binding
Residues (chain): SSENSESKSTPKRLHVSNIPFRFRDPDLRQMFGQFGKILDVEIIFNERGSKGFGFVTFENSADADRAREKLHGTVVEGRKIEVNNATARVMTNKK
`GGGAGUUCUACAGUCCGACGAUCUGUGUCUGAAGACAGUGACAGUGUACUCAUAUACAUAAAGAAAUCUUUUUUUAAAAAAGAGAGAAAAGAAAAACUAGUUGGUGGACAUGGUGGGUGACACGCCUUUAAUCUGGAAUUCUCGGGUGCCAA`: “RBNS enrichment (R)” 0.4.
For `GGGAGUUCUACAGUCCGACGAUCUGUUGUCAUGGAGCUGUGGGAGUUGGCACUCUGUCUGCUGGUGGCCCUCUCGGCUCACAUGUUCACAGUGCAGCUCCUGGCAGACUUGGGUUUUCUCUUUGGUGGUUUCUUGGAAUUCUCGGGUGCCAA`, “RBNS enrichment (R)” read 0.488.
For `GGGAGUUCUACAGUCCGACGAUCCACGGCUUUGCCCUGAUCUGUUCUGCAGGGCUAGGAGUGAGCCUGCCACUAACCCCUCUCCACCACUUGCUCACUCUUGGCCUUGGCCUUGGCCUUUAGGUCCCUGGUGGUGGAAUUCUCGGGUGCCAA`, “RBNS enrichment (R)” read 0.235.
`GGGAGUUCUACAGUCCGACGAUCAACAGCCCAGUGAGGCUGAAGUUCUCUUGUAGAAAUUCCUUUCCUGGGUAAAGUGAUGAGCCAUGUUUAUCUACUGAUCAGCUUCAUCAAAUUCGCAUCUAACUGAAUGGUGGAAUUCUCGGGUGCCAA`: “RBNS enrichment (R)” 0.38.
For `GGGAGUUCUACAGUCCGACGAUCUUAUAUUUUCAAACAUGGCAAGUUAAAAUAUAAAUUCAUUUAAAUAUAUAGUUUUGUACUUUUCUACCAUGUAAAUGUGCAAUGUAUAUAAAAGUUAUAAUGUGUAUUUGUGGAAUUCUCGGGUGCCAA`, “RBNS enrichment (R)” read 0.701.
`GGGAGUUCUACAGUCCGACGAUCUGAGACACGAUGCCGAGACCUCAAGCCCUGAGGGGCAGUCCCAAAACCCUUACAGUGAAGAUGUUUACUCAUUGCCCCCACCUCUGGUCCACACUAGAAAGAAGCUCGCCUGGAAUUCUCGGGUGCCAA` — result for “RBNS enrichment (R)”: 0.354.
`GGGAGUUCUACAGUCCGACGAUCAAGGGAGCACCCUGUUCCUAGACAGAUGGAGAGGCGUAUCCAUGUUUUCCUACAUAAUGUGGUUAAAACUUGAAUUUGUGCUUCAGCUCUUCUGUACUUCUUCCUUCCUAUGGAAUUCUCGGGUGCCAA`: “RBNS enrichment (R)” 0.211.
For `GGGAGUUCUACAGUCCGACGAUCCCAUAAACAGAGAUGGUCCUGAACUCUGGAGAGAUCCUUCCCUGAUCCUUUCGGACGACUACUUGGAGCCAUAAGUAACCUCAGCAAAAACGAGGCCUCUGCAAGCCACUUGGAAUUCUCGGGUGCCAA`, “RBNS enrichment (R)” read 0.259.

Study 4
Target: Sal-like protein 4, full length isoform A (SALL4, Homo sapiens, UniProt Q9UJQ4, residues 1-1053)
Sequence of UniProt Q9UJQ4 (whole entry, looked up): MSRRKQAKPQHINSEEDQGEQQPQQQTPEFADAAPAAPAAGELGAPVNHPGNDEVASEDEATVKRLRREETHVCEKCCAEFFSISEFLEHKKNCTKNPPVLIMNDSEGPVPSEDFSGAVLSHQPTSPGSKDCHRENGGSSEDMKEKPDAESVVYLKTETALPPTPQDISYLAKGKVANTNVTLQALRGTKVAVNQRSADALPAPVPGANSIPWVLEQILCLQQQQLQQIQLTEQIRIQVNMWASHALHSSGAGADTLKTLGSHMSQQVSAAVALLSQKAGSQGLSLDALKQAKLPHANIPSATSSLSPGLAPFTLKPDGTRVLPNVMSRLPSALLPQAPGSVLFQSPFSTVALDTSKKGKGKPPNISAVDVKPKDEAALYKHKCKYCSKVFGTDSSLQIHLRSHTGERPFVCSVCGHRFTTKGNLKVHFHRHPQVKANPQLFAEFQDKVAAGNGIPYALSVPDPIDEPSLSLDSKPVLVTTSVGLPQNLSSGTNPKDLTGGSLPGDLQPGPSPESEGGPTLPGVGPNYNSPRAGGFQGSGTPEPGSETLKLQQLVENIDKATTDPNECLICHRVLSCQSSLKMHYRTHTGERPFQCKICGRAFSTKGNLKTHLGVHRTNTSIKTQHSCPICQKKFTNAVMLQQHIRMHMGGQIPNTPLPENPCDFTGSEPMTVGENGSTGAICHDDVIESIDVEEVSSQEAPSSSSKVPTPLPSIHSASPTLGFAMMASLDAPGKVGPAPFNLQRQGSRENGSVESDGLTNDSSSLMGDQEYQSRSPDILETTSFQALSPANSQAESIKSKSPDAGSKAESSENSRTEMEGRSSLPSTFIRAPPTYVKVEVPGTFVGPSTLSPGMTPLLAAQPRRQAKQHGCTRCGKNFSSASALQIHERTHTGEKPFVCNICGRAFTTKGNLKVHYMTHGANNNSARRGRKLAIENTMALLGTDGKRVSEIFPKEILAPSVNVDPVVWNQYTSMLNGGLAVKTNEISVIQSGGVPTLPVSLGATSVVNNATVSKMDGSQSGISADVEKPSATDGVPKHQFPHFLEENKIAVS
Technique: universal PBM
Molecule type: double-stranded DNA, one strand shown
Medium: in vitro
Tested at: 600 nM
Notes: 8-mer, flanks averaged, mean of replicates
Direction: higher = stronger binding
`CTGGCTAC` gave an E-score of -0.129.
`GCTCAAAC` gave an E-score of -0.0857.
The E-score of `CCTACGGA` is reported as -0.167.
For `GACACCCC`, the E-score was -0.339.
For `ATGGCGTC`, the E-score was -0.164.
`CCATCGAC` gave an E-score of -0.0806.
`GCTTTTAA` has an E-score of 0.0708.
`AACTTATA` has an E-score of 0.307.
The E-score of `AGCATGCA` is reported as -0.09.
`GCGATCCC` has an E-score of -0.257.
For `CCGTCCTC`, the E-score was -0.153.
`ATGCCGTC` has an E-score of -0.136.
The E-score of `ACCGGCCC` is reported as -0.441.
`CGATTATC` gave an E-score of 0.0951.
With `CGCTCTAG` the E-score was -0.32.
With `CAACAGAC` the E-score was 0.0103.
With `ACTATTCG` the E-score was 0.254.
For `AAGTGCCG`, the E-score was -0.172.
`GGTTAGGA` gave an E-score of -0.0912.
`GCGATTGA` has an E-score of -0.0667.
With `CAAAGCCC` the E-score was -0.25.
With `CTTTTTGA` the E-score was 0.193.
The E-score of `AAACGTCG` is reported as -0.0423.
`AGTTTCCG` has an E-score of -0.125.
For `CCGGGCCC`, the E-score was -0.308.

Study 5
Target: Interferon regulatory factor 5, full length, phosphomimetic (IRF5, Homo sapiens, UniProt Q13568-2, residues 1-514, K96S/S451D/S453D/S456D/S462D)
Technique: protein-binding microarray
Molecule type: double-stranded DNA, one strand shown
Medium: in vitro
Tested at: 250 nM
Notes: 60-bp whole probe
With: salmon DNA 0.4 mg/ml
Reference: random background probes
Direction: higher = stronger binding
Constant ends, left off below: GCCTAGCAC … GTCTTGATTCGCTTGACGCTGCTG
`GGCGAACTGGGGTATCGAGACGTGCTA` has a log fluorescence of -0.0872 z-score.
With `GACGGACTGGGTATCGGGAAGTGCTAG` the log fluorescence was 0.531 z-score.
With `GACGGTATCCTACTGGTGACGTGCTAG` the log fluorescence was -0.182 z-score.
The log fluorescence of `TTAGGACTGGACTATCGGTTCGTGCTA` is reported as 4.24 z-score.
`GACGGTTTCATTTTCCTGACGTGCTAG` has a log fluorescence of 2.73 z-score.
The log fluorescence of `CTCTGCTTGCGTCTGGGTGTGTGCTAG` is reported as -0.446 z-score.
For `TGAGGTTTCGGGACTGGGTTAGTGCTA`, the log fluorescence was 3.64 z-score.
`TCAGCTTCCTCTCTGCCACTGTGCTAG` gave a log fluorescence of -0.00462 z-score.
`TTAGGACTGCACACTGGGTTAGTGCTA` gave a log fluorescence of -0.533 z-score.
With `TCCTCTTTCACTGGTCCTCATGTGCTA` the log fluorescence was 3.57 z-score.
`TCAGATTTCAGGAATTGAACTGTGCTA` has a log fluorescence of 0.654 z-score.
For `GACGGTTTCCCACTGCTGACGTGCTAG`, the log fluorescence was 0.102 z-score.
The log fluorescence of `GACGGTTTCGACATTCGGGACGTGCTA` is reported as 5.22 z-score.
`AAGACTCTCTTGTCTGGATGTGTGCTA` gave a log fluorescence of -0.558 z-score.
For `TTAAAACTGGGGTTTCGATTAGTGCTA`, the log fluorescence was 6.16 z-score.
`GACGACATCAGTTTCGAGACGTGCTAG` gave a log fluorescence of 5.27 z-score.
With `TTAGGTTTCCTTTTCCTTTGGTGCTAG` the log fluorescence was 1.26 z-score.
The log fluorescence of `TTAGATTACGGGTATCGATTAGTGCTA` is reported as 3.56 z-score.

Repeated from above (study 4):
The E-score of `ACCGGCCC` is reported as -0.441.
`CGATTATC` gave an E-score of 0.0951.
With `CGCTCTAG` the E-score was -0.32.
With `CAACAGAC` the E-score was 0.0103.
With `ACTATTCG` the E-score was 0.254.
For `AAGTGCCG`, the E-score was -0.172.
`GGTTAGGA` gave an E-score of -0.0912.
`GCGATTGA` has an E-score of -0.0667.
With `CAAAGCCC` the E-score was -0.25.
With `CTTTTTGA` the E-score was 0.193.
The E-score of `AAACGTCG` is reported as -0.0423.
`AGTTTCCG` has an E-score of -0.125.
